# Assay results pooled from the literature.
# Each numbered part is a random draw from the data of one study; scales do not carry over between parts. Positions count from the first letter of the parent shown.

# Block 1
# Target: Ras GTPase-activating protein-binding protein 1, full length (G3BP1, Homo sapiens, UniProt Q13283)
# Chain of UniProt Q13283 (whole entry, looked up): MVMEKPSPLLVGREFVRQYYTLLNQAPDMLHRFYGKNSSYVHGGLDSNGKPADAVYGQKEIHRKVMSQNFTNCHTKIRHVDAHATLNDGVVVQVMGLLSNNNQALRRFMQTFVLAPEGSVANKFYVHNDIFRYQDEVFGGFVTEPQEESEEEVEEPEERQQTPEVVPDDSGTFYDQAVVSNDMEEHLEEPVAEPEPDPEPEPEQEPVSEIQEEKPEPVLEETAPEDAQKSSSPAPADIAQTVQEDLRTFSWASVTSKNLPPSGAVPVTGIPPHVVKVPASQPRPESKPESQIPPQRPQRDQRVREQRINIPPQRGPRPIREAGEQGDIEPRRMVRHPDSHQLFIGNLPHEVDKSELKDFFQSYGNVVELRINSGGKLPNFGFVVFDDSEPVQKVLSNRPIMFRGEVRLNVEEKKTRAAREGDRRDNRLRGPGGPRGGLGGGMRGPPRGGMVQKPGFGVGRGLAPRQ
# Technique: RNA Bind-n-Seq
# Form: RNA
# Medium: in vitro
# Tested at: 200 nM
# Notes: whole 134-nt RNA, ends assumed
# Added: 150 mM LiCl
# Reference: input library
# Reading: higher = stronger binding
# Each molecule: 7-deaza-guanosine replaces G
# Shared flanks, not repeated: GGGAGUUCUACAGUCCGACGAUC … UGGAAUUCUCGGGUGUCAAGG
Strand,log2 enrichment
CAAGUCCUGUGCUACACAUCGUAUGUACCGAAUCGGUUUGGUUUUUUUGGAAAGGAAAGUAUUAUGUUACGCCGUUCGGAUCUGCACUUC,-0.407
AGUCCUGUGCUACACAUCGUAUGUACCGAAUCGGGAAAAAAAGGGUUUGGGUUUGGGAAAGUAUUAUGUUACGCCGUUCGGAUCUGCACU,-1.71
AAGUCCUGUGCUACACAUCGUAUGUACCGAAUCGGGGCCCCGGCCCCGGCCCCGGGAAAGUAUUAUGUUACGCCGUUCGGAUCUGCACUU,-1.83
ACCAUGCAGGUGGGCAUCUUUGGGAAGUGGGGCAAGGGGGGGAUAGGGAGGGGGGUAACACUUUGGGAACAGGUGGCCCCAGGUCGUUUC,0.224
CCUGUGCUACACAUCGUAUGUACCGAAUCGGGAAAAAAAGGGAAAAAGGGUUUUUUUGGGAAAGUAUUAUGUUACGCCGUUCGGAUCUGC,-1.45
UGCUGUGUCACCGGGAACGCAAAGGCUGGGAAGAAGGCCCUUCUCAAAAUGGACUGGUGUUGCAGGGUGAGAAGCUGCCCCCUGACUUCA,-0.231
UUUUACUUCUCCGCCAGGUGCUGUGCUCCAUCAUCGCCGGUACCUUGCACUAUCUCUACCUGGCCACCUUGACCUGGAUGCUGCUGGAGG,-0.0619
AAGUCCUGUGCUACACAUCGUAUGUACCGAAUCGGAAAAAAAGGAAAAAGGAAAGGAAAGUAUUAUGUUACGCCGUUCGGAUCUGCACUU,-1.14
GCAGGAAGUAAAAACAAAUGGAAAUGCUUCGGAUAGUGGCAGGGGUGGGGGUUGCUAAGGAUAGGGUGGGAUGGGAGUGGGUAAAGAGUU,0.0135
UGGCCCUGGUGGCAUGCGGGGAGGAAGAGGUGGCCUCAUGGAUCGUGGUGGUCCCGGUGGAAUGUUCAGACGUGGCCGUGGUGGAGACAG,0.122
GUCCUGUGCUACACAUCGUAUGUACCGAAUCGGAAAAAGGUUUUUUUGGUUUUUUUGGAAAGUAUUAUGUUACGCCGUUCGGAUCUGCAC,-2.44

# Block 2
# Target: ABI1, truncated, D143A, DHFR fusion (Arabidopsis thaliana)
# Technique: DHFR PCA, deep sequencing
# Medium: yeast
# Notes: methotrexate growth selection, single substitutions
# Added: (+)-ABA 1.4 µM
# Reference: wild-type fitted maximum
# Reading: higher = stronger binding
# Starting sequence: PYL1, truncated, DHFR fusion (Arabidopsis thaliana); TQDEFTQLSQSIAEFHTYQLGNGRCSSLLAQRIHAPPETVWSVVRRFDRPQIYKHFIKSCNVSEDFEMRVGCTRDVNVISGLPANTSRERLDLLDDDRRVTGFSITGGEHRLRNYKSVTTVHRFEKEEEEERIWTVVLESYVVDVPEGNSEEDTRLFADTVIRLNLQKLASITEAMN; partner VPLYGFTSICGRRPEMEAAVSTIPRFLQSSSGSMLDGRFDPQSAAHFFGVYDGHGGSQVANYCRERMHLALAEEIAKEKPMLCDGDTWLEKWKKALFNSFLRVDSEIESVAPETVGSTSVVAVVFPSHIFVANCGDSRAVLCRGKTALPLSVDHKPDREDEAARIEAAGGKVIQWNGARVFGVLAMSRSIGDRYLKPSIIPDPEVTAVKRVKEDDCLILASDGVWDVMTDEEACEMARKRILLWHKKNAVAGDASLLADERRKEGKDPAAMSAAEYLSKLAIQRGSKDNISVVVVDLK
Substitution,relative binding score [%]
M68G,11
V100K,0.596
T1R,56.8
E67Y,23.3
I162H,8.45
T1H,59.2
D97T,59.7
Q10F,9.8
A13Q,41.7
P83H,0.445
L169N,-31.5
L169W,-0.772

# Block 3
# Target: Prothrombin, mature alpha-thrombin (F2, Homo sapiens, UniProt P00734)
# Technique: aptamer microarray, sandwich
# Form: DNA with 2'F-ANA
# Medium: in vitro
# Tested at: 200 nM
# Notes: whole 15-mer aptamer, many near background
# Added: Cy3 exosite-II aptamer, 400 nM
# Reading: higher = stronger binding
# Strand: GGTTGGTGTGGTTGG
Modification,mean fluorescence intensity [a.u.]
2'F-ANA at 1 4 6 7 9 11 14,48.6
2'F-ANA at 3 4 5 6 7 8 9 13,121
2'F-ANA at 3 4 5 6 8 11 12 15,170
2'F-ANA at 1 2 3 4 5 10 13,46.4
2'F-ANA at 1 2 4 6 7 8 9 11 12 13 14 15,67.2
2'F-ANA at 1 2 6 8 11 12 13 14 15,69
2'F-ANA at 1 3 6 7 9 11 12 13,296
2'F-ANA at 3 8 9 10 12 13,566
2'F-ANA at 8 11 12 13 14,232
2'F-ANA at 1 2 5 6 9 10 11 12 13 15,54.7
2'F-ANA at 2 5 7 8 12 14 15,50.9
2'F-ANA at 1 2 3 4 6 7 8 11,158
2'F-ANA at 1 2 3 5 6 8 10 11 13,56
2'F-ANA at 1 2 3 4 7 9 10 12 14 15,50.1
2'F-ANA at 2 3 4 6 7 8 11 13 14,274
2'F-ANA at 1 5 10 13,46.5
2'F-ANA at 1 3 6 7 10 12 13 15,102
2'F-ANA at 1 5 7 8 10 12 13 15,84.7
2'F-ANA at 1 2 4 5 7 8 9 11 12 15,88.9
2'F-ANA at 1 2 3 7 8 10 13 14,52.3
2'F-ANA at 1 3 4 8 9 13 15,140
2'F-ANA at 2 3 6 7 9 10 13 14 15,196
2'F-ANA at 6 7 8 9 12 15,718
2'F-ANA at 1 4 6 8 10 11 13 15,55.1

# Block 4
# Target: RING finger protein unkempt homolog, zinc fingers 1-6, GST-SBP tag (UNK, Homo sapiens, UniProt Q9C0B0, residues 30-357)
# Technique: RNA Bind-n-Seq
# Form: RNA
# Medium: in vitro
# Tested at: not given
# Notes: RNA with constant flanks, human-mouse chimeric sites, ends assumed
# Reference: input RNA pool
# Reading: higher = stronger binding
# Shared flanks, not repeated: GGGAGUUCUACAGUCCGACGAUC … CAACAGAGGAUUGAGCAUCA
# Residues (chain): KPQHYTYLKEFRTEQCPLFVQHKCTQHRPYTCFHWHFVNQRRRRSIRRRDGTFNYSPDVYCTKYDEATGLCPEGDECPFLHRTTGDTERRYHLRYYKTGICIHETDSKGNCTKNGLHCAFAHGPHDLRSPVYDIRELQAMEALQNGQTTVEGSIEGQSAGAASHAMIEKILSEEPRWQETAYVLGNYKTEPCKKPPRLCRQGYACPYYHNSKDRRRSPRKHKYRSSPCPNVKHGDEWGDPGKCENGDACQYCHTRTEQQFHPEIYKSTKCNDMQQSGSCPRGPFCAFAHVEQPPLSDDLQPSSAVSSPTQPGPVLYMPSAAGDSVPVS
Strand,bound/input enrichment [ratio]
GCUCCUCCCCGCUCUGCAGCCUGGGGACACUGGGCUGGGACCAGAAUCCAGCUUUCUUUUAAAACUCUAUAUUUUUUUGUAUCCCGUGACAUUUCAUUUUUUUUAAAAGAAAAAAACUUU,0.466
AUGGAACAUUUCGAUGCGUCACUCAGUACCUAUUUCAAGGCCUUCCUGGGCCCCCGAGAUACAAGAGUAAAAGGAUGGUUCCUCCUGGACAAUUACAUCCCUACGUUUGUCUGUUCUGUU,0.0825
GAUCAUGAACCACCAUCCAGAAAUGAAAUGAGAUUACCCAGACGAGCCAAAACAGCUGCGCUACAGAAAAGUAAACUUAACCUUGCAGAGUUCCUUAAAUGAAGAUCAAGUUAAGAGAGC,0.367
UUUCUAUUGCAGCAAACGAUGCUAAGAAUUAAGGAUCCUAAGAAGUCCCUGGAUUUUUAUACGAGGGUUCUUGGACUGACCCUCCUGCAGAAGCUUGACUUCCCUGCUAUGAAGUUUUCG,0.314
GAAUCCUACUCAGGCGGAUUUUGCAACCUGAAUGCAACAGCAGCAGCAUCUUAGUCACAGUAGGGUAGUUUUGGGGCUCUGUGGCCAGGGUUUUAUUCAUGUGCAGGUUUGGAAAAUGUA,1.1
UUCAAAGAAAAGGGCAGCUGUGUCAUUUCAUAAGUAACUCUGGGGGAGGGAAAUUCUGUUCUUUUGUUUAAUUUUCCCCCAAAUGAAACCAACAUGCUUUUUAAGGAACUGAGAAAAAAU,0.208
UGGCGCCUGCGCUCCCCACUCGUGUUUGUAUUUUUAUUUUUAUAAGAUACAUGUAUUUACAAUUGAGCUUUUGUUACUAUAAUACUGAAUGCUACUGGAGAUUAUGAAAAAUGUUUCAAU,0.271
AUCAAAUAUUUUGGGGACAUCAUUAGUGUGGGACAGAGACUGUUGCAAGGAGCUCGGAUCUUAGGGAUUCCUGUUAUCAUAACGGAACAAUACCCCAAAGGACUUGGCAGCACCGUUCAA,0.171
GAGUCGAGCAAACUUGAAACAAUUCGUUAUCUUGCAGCCUCAGUGUUCACUUGCUUGGCGAUAGCAUAUUGGGAUUUUAGGUUCUGGAAGGAGAACUGACGAUGAUGUCCUGCUGUGUGC,0.3
CAGGGCAUCAUCUCUCGUGCUGUUAGACACCUGUUCAAGAGUAUUGAAGAAAAAAAAACCUCAGCGAUUAAAAACGGGCUGCCCCCUCCUGAAUUCAAAGUGAAUGCCCAAUUCUUAGAG,0.808
AUGGAAAAGGAUUCUCUGCCCCGCUUUGUGCGCUCUGAAUUUUAUAAGGAGCUAAUCAAGUAGUCAUCUGGUCAGGCUUCCAAAAGUUGCCCUGUGAGUUGAGUUACAUCCUUUGUAGCA,0.192

# Block 5
# Target: CCND2, cyclin fold, Cln2 fusion (human)
# Technique: yeast growth competition, sequencing
# Medium: yeast
# Notes: weak parent motif
# Reference: not given
# Reading: higher = stronger binding
# Starting sequence: DBF4 docking peptide (human); DDIVSKLVFDFVE
Substitution,normalised enrichment score
D10A,0.529
V8A,-0.137
F9A,0.0708
I3A,0.144
S5A,-0.273
D2A,0.0376
